Published values of several laboratories.
Several values in a cell are separate wells, animals, samples, runs or records. ± marks the error that the study gave.
IDE: Insulin-degrading enzyme (IDE, Homo sapiens, UniProt P14735)
Sequence of UniProt P08684 (whole entry, looked up): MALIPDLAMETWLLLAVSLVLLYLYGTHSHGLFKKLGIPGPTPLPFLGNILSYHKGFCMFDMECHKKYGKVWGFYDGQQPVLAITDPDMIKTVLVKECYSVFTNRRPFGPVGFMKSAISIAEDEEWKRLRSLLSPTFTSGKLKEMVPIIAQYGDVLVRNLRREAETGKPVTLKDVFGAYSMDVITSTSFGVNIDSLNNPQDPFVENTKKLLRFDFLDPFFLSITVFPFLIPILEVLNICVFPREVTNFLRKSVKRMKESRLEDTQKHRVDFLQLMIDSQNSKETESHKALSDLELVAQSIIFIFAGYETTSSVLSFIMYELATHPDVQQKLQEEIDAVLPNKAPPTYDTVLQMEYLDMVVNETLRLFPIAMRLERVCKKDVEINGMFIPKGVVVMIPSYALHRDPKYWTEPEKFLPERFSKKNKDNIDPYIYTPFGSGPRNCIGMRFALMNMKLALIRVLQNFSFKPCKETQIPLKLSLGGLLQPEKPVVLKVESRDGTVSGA

CCC(=O)N1CCOc2c(cc(-c3ccc(OC)c(OC)c3)cc2OC[C@H]2CCCN(C)C2)C1
viability (HBL-1; 1 µM, 120 h): 101%

Cc1cc(Nc2ccc(S(F)(F)(F)(F)F)cc2)n2nc(C(C)(F)F)nc2n1
patients with QTcF above threshold (Plasmodium vivax; 12-lead Holter ECG; human malaria patients; oral, 400 mg, QTc above 450 ms): 0%

C[Si]1(C)O[Si](C)(C)O[Si](C)(C)O[Si](C)(C)O[Si](C)(C)O1
bioconcentration factor (Oncorhynchus mykiss; extrapolated from liver S9; concentration not given, lipid-normalized, total): 33000 L/kg lipid

C[C@@H]1OC(=O)[C@H](Cc2ccccc2)[C@H]1O
NOEC (Pseudokirchneriella subcapitata; growth; concentration not given, 72 h, static test): > 9000 µg/L

O=c1c(O)c(-c2ccccc2)oc2ccccc12
CYP1A1 induction (BEAS-2B; enzyme activity, inducer, fluorogenic substrate imaging; 10 µM, 24 h; baseline: control): 1.45 fold

CC[C@H]1[C@@H](O)[C@@H]2[C@H](CC[C@]3(C)[C@@H]([C@H](C)CCNC(=O)NS(=O)(=O)c4ccc(C(C)(C)C)cc4)CC[C@@H]23)[C@@]2(C)CC[C@@H](O)C[C@@H]12
half-life geometric mean (Cytochrome P450 3A4 (CYP3A4, Homo sapiens, UniProt P08684); human, plasma; dose not given, added: fluconazole): 22.3 h

N#Cc1ccc2c(c1)[C@H]1CCCN(C(=O)c3ccc4[nH]cnc4c3)[C@H]1C2
ACTH level change (human; 80 mg, day 7; baseline: baseline): 1.9 pmol/L

C[Si](C)(C)O[Si](C)(C)O[Si](C)(C)C
whole-body biotransformation rate constant (Oncorhynchus mykiss; IVIVE from S9 data; per S9 batch): 0.086 day⁻¹ and 0.064 day⁻¹ and 0.077 day⁻¹

CC(=O)Nc1cccc(-n2c(=O)n(C3CC3)c(=O)c3c(Nc4ccc(I)cc4F)n(C)c(=O)c(C)c32)c1
viability (COLO 205; resazurin; concentration not given, 72 h, unit not given; baseline: DMSO): 0.318 and 0.215 and 0.561 and 0.189 and 0.213 and 0.328

CC(C)(C(=O)N1CCOc2c(C#N)cncc2C1)C(F)F
subjects with adverse event (measured: Restlessness; human; oral, 10 mg once daily, 14 days, multiple ascending dose): 0%

COc1cc2c(NC3CCN(CC4CCCCC4)CC3)nc(N3CCCN(C(C)C)CC3)nc2cc1OCCCN1CCCCC1
viability (HBL-1; 0.5 µM, 120 h): 108%

CC1(C)CC[C@]2(C(=O)O)CC[C@]3(C)C(=CC[C@@H]4[C@@]5(C)C[C@@H](O)[C@H](O)C(C)(C)[C@@H]5CC[C@]43C)[C@@H]2C1
CYP1A1 induction (BEAS-2B; enzyme activity, inducer, fluorogenic substrate imaging; 10 µM, 24 h; baseline: control): 1.08 fold

CC[C@H](CO)N(CCN(N=O)[C@H](CC)CO)N=O
revertant colonies per plate (Salmonella typhimurium; mutagenicity, Ames plate incorporation; TA98; 2500 µg/plate, without S9, methanol): 29 ± 3

CN1CCN(c2cnc3c(cc(C(=O)NCc4ccc(Cl)cc4)c(=O)n3CC(=O)N3CC(C)(F)C3)n2)C1=O
selectivity index (herpes simplex virus 1; cytopathic effect; baseline: CC50 over EC50): > 106

COc1ccccc1-c1ccc([C@@H]2[C@@H](C#N)N(C(=O)CN(C)C)[C@H]2CO)cc1
EC50 (IDE; enzyme activity, inhibitor, fluorogenic kinetic; added: Mca-RPPGFSAFK(Dnp)-OH substrate): 5200 nM

Cc1cc(N)c2c(OCC(C)(C)C(=O)NC(C)C)cccc2n1
mean revertant colonies (Salmonella typhimurium; reverse mutation, plate incorporation; TA100; 100 µg/plate, with rat liver S9): 72 colonies/plate

Cc1ccc(-c2ccc([C@@H]3[C@@H](CO)N4CCCCN(S(=O)(=O)c5ccccc5C)C[C@@H]34)cc2)cc1C
EC50 (IDE; enzyme activity, inhibitor, fluorescence kinetic; added: Mca-RPPGFSAFK(Dnp)-OH substrate): 140 nM

CC(C)(c1ccc(O)cc1)c1ccc(O)cc1
mitotic cells increase (HepG2 spheroids; flow cytometry, measured: phospho-histone H3; 0.1 µM, 96 h; baseline: solvent control): 1.73 fold
